{"data": "Experimental data gathered from unrelated publications", "note": "Each numbered part is a random draw from the data of one study; scales do not carry over between parts. Changes are numbered by the printed parent chain."}
{"data": "Block 1", "target": "Prothrombin, mature alpha-thrombin (F2, Homo sapiens, UniProt P00734)", "method": "aptamer microarray, sandwich", "form": "DNA with 2'F-ANA", "medium": "in vitro", "concentration": "200 nM", "notes": "whole 15-mer aptamer, many near background", "together with": "Cy3 exosite-II aptamer, 400 nM", "reading": "higher = stronger binding", "oligonucleotide": "GGTTGGTGTGGTTGG"}
{"Modification": "2'F-ANA at 4 6 11 12", "mean fluorescence intensity": "372 a.u."}
{"Modification": "2'F-ANA at 1 2 3 8 9 10", "mean fluorescence intensity": "89.6 a.u."}
{"Modification": "2'F-ANA at 2 3 13 15", "mean fluorescence intensity": "822 a.u."}
{"Modification": "2'F-ANA at 1 2 5 6 7 8 9 10 11", "mean fluorescence intensity": "51.3 a.u."}
{"Modification": "2'F-ANA at 2 3 8 12 15", "mean fluorescence intensity": "1130 a.u."}
{"Modification": "2'F-ANA at 1 3 6 7 8 9 12 14 15", "mean fluorescence intensity": "139 a.u."}
{"Modification": "2'F-ANA at 1 2 3 9 10 12 13 15", "mean fluorescence intensity": "93.7 a.u."}
{"Modification": "2'F-ANA at 1 2 8 10 13", "mean fluorescence intensity": "81.9 a.u."}
{"data": "Block 2", "target": "Histone acetyltransferase KAT6A, both winged helices, GST fusion (KAT6A, Homo sapiens, UniProt Q92794, residues 1-181)", "method": "protein binding microarray", "form": "double-stranded DNA, one strand shown", "medium": "in vitro", "concentration": "not given", "notes": "8-mer, flanks averaged, mean of 2 arrays, mostly near background", "reference": "not given", "reading": "higher = stronger binding", "Residues (chain)": "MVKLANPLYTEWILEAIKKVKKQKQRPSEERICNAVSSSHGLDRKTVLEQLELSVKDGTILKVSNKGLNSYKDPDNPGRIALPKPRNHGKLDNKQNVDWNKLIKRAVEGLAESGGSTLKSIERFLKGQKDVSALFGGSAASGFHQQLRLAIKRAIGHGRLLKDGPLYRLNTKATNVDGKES"}
{"Oligonucleotide": "GAGAATCC", "E-score": -0.0145}
{"Oligonucleotide": "AGCAGGCC", "E-score": 0.0305}
{"Oligonucleotide": "AATTTGCT", "E-score": -0.118}
{"Oligonucleotide": "CTTGTGAA", "E-score": -0.0699}
{"Oligonucleotide": "ACTAACAA", "E-score": -0.0981}
{"Oligonucleotide": "CAACCTAC", "E-score": -0.084}
{"Oligonucleotide": "AACGCAGA", "E-score": 0.0952}
{"Oligonucleotide": "AGTTCTAA", "E-score": -0.0164}
{"data": "Single results of other studies", "P1": "PafA, mature enzyme, eGFP fusion (Elizabethkingia meningoseptica, UniProt Q9KJX5); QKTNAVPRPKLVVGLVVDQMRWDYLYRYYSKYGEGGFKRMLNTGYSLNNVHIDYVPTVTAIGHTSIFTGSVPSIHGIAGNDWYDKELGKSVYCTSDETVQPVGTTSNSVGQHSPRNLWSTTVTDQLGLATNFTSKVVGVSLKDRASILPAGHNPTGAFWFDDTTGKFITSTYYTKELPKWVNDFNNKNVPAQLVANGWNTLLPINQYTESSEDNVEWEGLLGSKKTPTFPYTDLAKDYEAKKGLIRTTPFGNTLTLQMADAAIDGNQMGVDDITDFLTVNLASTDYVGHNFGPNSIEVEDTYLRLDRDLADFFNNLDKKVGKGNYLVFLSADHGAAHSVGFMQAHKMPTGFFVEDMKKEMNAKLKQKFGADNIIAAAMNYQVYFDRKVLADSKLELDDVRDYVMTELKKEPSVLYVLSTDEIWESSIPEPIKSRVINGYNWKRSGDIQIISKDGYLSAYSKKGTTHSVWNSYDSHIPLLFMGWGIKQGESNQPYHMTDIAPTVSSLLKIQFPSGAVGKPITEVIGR", "P2": "viral docking peptide; KGVKRKLFAEDSS; partner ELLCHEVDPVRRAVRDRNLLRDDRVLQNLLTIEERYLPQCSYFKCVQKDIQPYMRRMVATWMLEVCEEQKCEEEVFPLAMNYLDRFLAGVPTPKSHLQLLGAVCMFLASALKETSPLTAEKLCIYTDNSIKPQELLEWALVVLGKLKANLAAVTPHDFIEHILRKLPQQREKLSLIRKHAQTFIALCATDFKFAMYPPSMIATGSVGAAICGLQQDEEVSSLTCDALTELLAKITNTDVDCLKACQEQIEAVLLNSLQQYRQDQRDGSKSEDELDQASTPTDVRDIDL"}
{"Substance": "P1 D162V", "target": "inorganic phosphate, free oxyanion", "assay": "microfluidic competitive inhibition", "test system": "in vitro, cell-free expressed", "conditions": "not given, derived from inhibition constants, unchanged parent 615000 nM", "scale": "lower = stronger binding", "quantity": "phosphate dissociation constant", "result": "564 µM"}
{"Substance": "PhoQ, residues 284 288 289 292 302 303 NLALSC", "target": "PhoP, residues 12 14 15 18 19 LWHCS (Escherichia coli, UniProt P23836)", "assay": "Sort-seq, refers to: YFP reporter", "test system": "E. coli", "conditions": "PhoQ-PhoP variant library, together with: 10 µM Mg2+", "scale": "reference: high Mg2+ state, higher = stronger signaling", "quantity": "fold induction", "result": 1.11}
{"Substance": "P2 K6F", "target": "CCND2, cyclin fold, Cln2 fusion (human)", "assay": "yeast growth competition, sequencing", "test system": "yeast", "conditions": "weak parent motif", "scale": "reference: not given, higher = stronger binding", "quantity": "normalised enrichment score", "result": -0.156}
{"note": "A few entries again (single results of other studies):"}
{"Substance": "PhoQ, residues 284 288 289 292 302 303 NLALSC", "target": "PhoP, residues 12 14 15 18 19 LWHCS (Escherichia coli, UniProt P23836)", "assay": "Sort-seq, refers to: YFP reporter", "test system": "E. coli", "conditions": "PhoQ-PhoP variant library, together with: 10 µM Mg2+", "scale": "reference: high Mg2+ state, higher = stronger signaling", "quantity": "fold induction", "result": 1.11}
{"Substance": "P2 K6F", "target": "CCND2, cyclin fold, Cln2 fusion (human)", "assay": "yeast growth competition, sequencing", "test system": "yeast", "conditions": "weak parent motif", "scale": "reference: not given, higher = stronger binding", "quantity": "normalised enrichment score", "result": -0.156}
